Measured values from different studies.
Lines come from different studies, so protocols differ.
Target: Dual specificity tyrosine-phosphorylation-regulated kinase 2 (DYRK2, Homo sapiens, UniProt Q92630)
Sequence (Q92630 1-601, as in one of the studies): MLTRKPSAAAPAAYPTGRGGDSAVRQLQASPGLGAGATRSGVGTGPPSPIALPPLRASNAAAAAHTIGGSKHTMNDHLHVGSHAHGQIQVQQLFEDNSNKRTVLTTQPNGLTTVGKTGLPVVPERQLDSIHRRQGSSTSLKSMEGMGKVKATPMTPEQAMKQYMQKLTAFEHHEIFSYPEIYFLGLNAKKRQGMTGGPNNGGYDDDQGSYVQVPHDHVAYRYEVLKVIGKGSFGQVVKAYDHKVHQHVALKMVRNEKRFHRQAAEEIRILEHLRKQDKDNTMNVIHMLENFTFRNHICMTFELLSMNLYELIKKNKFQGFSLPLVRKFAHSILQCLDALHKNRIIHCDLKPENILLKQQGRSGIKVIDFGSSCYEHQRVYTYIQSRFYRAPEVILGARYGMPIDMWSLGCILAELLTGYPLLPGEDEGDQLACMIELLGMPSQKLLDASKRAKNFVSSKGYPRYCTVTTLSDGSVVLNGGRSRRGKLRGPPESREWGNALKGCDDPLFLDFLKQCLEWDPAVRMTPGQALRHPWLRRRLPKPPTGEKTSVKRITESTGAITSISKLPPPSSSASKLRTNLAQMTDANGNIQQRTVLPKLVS

| SMILES | assay | setting | how to read | measurement | result |
| --- | --- | --- | --- | --- | --- |
| O=C=[N][Ru-4]123([n]4c5ccc(O)cc5c5c6c(c7cc(F)c[n+]1c7c54)C(=O)NC6=O)[S+]1CC[S+]2CC[S+]3CC1 (centres unmarked) | enzyme activity | 100 nM, human enzyme, added: 10 µM ATP | baseline: untreated | remaining activity | 114% |
| NC(=O)[C@@H](O)C[C@H]1CCc2sc3ncnc(O[C@H]4CC[C@H](N5CCOCC5)CC4)c3c21 | enzyme activity, inhibitor | 10 µM |  | inhibition | 5% |
| Nc1ncc(-c2cc(-c3cnn(CC(F)(F)F)c3)ncc2F)nc1C(=O)NC1CNCC(F)C1 (centres unmarked) | enzyme activity | 1 µM | baseline: DMSO control | remaining activity | 94.9% |
| CCn1cc(C(=O)O)c(=O)c2c(N)c(F)c(NC3CCCCC3)cc21 | kinase activity | 0.1 µM, added: ATP at Km |  | inhibition | 13.5% |
| Cc1cccc(O[C@H]2CCC[C@@H](C(C)CNCc3ccncc3)C2)c1 (relative stereo) | enzyme activity, inhibitor | 10 µM |  | inhibition | -4% |
| COc1c(OCCCN2CCOCC2)ccc2c1N=C(NC(=O)c1cnc(N)nc1)N1CCN=C21 | kinase activity, inhibitor | 1 µM | baseline: untreated control | remaining activity | 124% |
| CN1CCN(Cc2ccc(-c3ccc(CO[C@H]4CCC[C@@H]4NC(=O)c4cc(-c5cnn(C)c5)cnc4N)cc3)cc2)CC1 | enzyme activity, inhibitor | 0.1 µM |  | inhibition | 4% |
| O=C(Cc1ccc(OCc2ccccc2)cc1)NC1(C(=O)O)CCN(C(=O)c2ccc(-c3cccc(Cl)c3)cc2)CC1 | enzyme activity, inhibitor | 10 µM |  | activity vs control | 103% |
| C=CC(=O)N1CCc2ccc(-n3c(=O)ccc4cnc5ccc(-c6cnn(C)c6)cc5c43)cc21 | KINOMEscan | 1 µM | baseline: DMSO control | remaining binding | 96% |
| C=CC(=O)N1CCCC(n2c(=O)c3ncccc3n(Cc3ccc(Oc4ccccc4)cc3)c2=O)C1 (centres unmarked) | cell-free assay, competition with immobilised ligand | 1 µM |  | remaining binding | 86% |
| CNC(=O)C1CCN(c2cc(C)c(F)cc2NC(=O)c2ccc(-c3cc(O)ccc3C)c(C)c2)CC1 | binding, competition with immobilised ligand | 1 µM |  | remaining binding | 100% |
| COC(=O)[C@@]1(C)C=C(C(=O)Nc2cccc(C(=O)Nc3ccc(Nc4nccc(-c5cccnc5)n4)c(C)c3)c2)C(=O)CC1 | enzyme activity, inhibitor, radiometric | 1 µM |  | remaining activity | 91% |
| Cc1cccc(-c2ccc3nc(NC(=O)C4CCOCC4)nn3c2)c1 | enzyme activity, Dundee kinase panel | 10 µM |  | remaining activity | 48% |
| CN1CC[C@@H](COc2cnc(C#N)cc2-c2ccn3nc(NC(=O)C4CC4)cc3c2)C1 | enzyme activity, inhibitor | 1 µM |  | inhibition | 6% |
| C=CC(=O)Nc1cccc(-c2cnc3[nH]cc(C(=O)NC(C)(C)C)c3n2)c1 | enzyme activity, inhibitor | 0.1 µM |  | inhibition | 8% |
| Cc1cccc(-c2ccc3nc(NC(=O)C4CCCO4)nn3c2)c1 (centres unmarked) | enzyme activity, Dundee kinase panel | 10 µM |  | remaining activity | 62% |
| COc1cc(Nc2nc(C)cc(-c3cnn4nc(OC)ccc34)n2)cc(C(F)(F)F)c1 | inhibitor | 1 µM | baseline: control | remaining activity | 79% |

Excerpt of the above:
| SMILES | assay | setting | how to read | measurement | result |
| --- | --- | --- | --- | --- | --- |
| Nc1ncc(-c2cc(-c3cnn(CC(F)(F)F)c3)ncc2F)nc1C(=O)NC1CNCC(F)C1 (centres unmarked) | enzyme activity | 1 µM | baseline: DMSO control | remaining activity | 94.9% |
